Experimental data gathered from unrelated publications.
Each line is one published result; not all experiments were run side by side.
Cell line: ACHN

Compound	test	setting	scale	measurement	result
CCC(=C(c1ccc(Cl)cc1)c1ccc(OCCCN(C)C)cc1)c1ccc(OC)cc1	cell growth or viability	–	–	GI50	5.61 µM
CC(=O)OC[C@H]1O[C@@H](Sc2sc(C(=O)c3ccc(Br)cc3)c(N)c2-c2nc3ccccc3s2)[C@H](OC(C)=O)[C@@H](OC(C)=O)[C@@H]1OC(C)=O	SRB	10 µM, 48 h	relative to: untreated	growth	97.8%
COc1ccc(C2=Nn3c(NN=C4C(=O)N(Cc5ccccc5)c5ccc(Cl)cc54)nnc3SC2)cc1	cell growth or viability, SRB	10 µM	–	inhibition	23%
COc1cc(CNC(=O)C[C@H](C)CCC=C(C)C)ccc1OCc1cn(-c2ccc(Cl)cc2Cl)nn1	SRB	10 µM, 48 h	–	growth percent	61.1%
COc1ccc2c(c1)/C(=N\Nc1nnc3n1N=C(c1ccccc1)CS3)C(=O)N2	cell growth or viability, SRB	10 µM	–	inhibition	35%
COc1cc(CNC(=O)C[C@H](C)CCC=C(C)C)ccc1OCc1cn(-c2ccc(F)cc2)nn1	SRB	10 µM, 48 h	–	growth percent	69%
CC/C=C\C/C=C\C/C=C\C/C=C\C/C=C\C/C=C\CCC(=O)Nc1ccn(C2OC(CO)C(O)C2(F)F)c(=O)n1 (stereo not drawn)	cell growth or viability, SRB	–	–	GI50	< 0.01 µM
CC(Cc1ccc(Cl)cc1)=C(c1ccc(Cl)cc1)c1ccc(OCCN(C)C)cc1	cell growth or viability	–	–	GI50	5.12 µM
COc1cc(CNC(=O)C[C@H](C)CCC=C(C)C)ccc1OCc1cn(-c2ccccc2)nn1	SRB	10 µM, 48 h	–	growth percent	111%

Some of these lines once more:
Compound	test	setting	scale	measurement	result
COc1cc(CNC(=O)C[C@H](C)CCC=C(C)C)ccc1OCc1cn(-c2ccccc2)nn1	SRB	10 µM, 48 h	–	growth percent	111%
